Measurements of several laboratories.
Parts stem from different laboratories: compare values within a part only.

Sample 1 — technique: EMSA with sequencing; form: double-stranded DNA, one strand shown; medium: in vitro; concentration: 10 and 20 nM; reference: negative control set to 0; reading: higher = stronger binding
Target: Hepatocyte nuclear factor 3-alpha (Foxa1, Mus musculus, UniProt P35582, residues 1-468, full length assumed)
Sequence of UniProt P35582 (whole entry, looked up): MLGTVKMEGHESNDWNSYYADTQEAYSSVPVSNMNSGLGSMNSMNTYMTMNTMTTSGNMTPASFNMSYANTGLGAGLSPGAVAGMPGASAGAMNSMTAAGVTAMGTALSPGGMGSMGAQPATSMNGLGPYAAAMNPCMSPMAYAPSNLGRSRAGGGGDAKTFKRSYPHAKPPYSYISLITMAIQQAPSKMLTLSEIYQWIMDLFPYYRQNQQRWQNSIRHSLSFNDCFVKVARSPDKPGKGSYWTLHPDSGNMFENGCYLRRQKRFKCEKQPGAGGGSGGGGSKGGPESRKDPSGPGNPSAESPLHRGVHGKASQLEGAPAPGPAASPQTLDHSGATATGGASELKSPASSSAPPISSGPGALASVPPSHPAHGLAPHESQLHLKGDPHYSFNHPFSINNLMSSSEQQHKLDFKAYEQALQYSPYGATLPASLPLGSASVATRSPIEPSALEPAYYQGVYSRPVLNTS
Notes: whole designed probe, mean of two concentrations, ends assumed
`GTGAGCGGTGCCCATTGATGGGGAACTTAAAATTCCAAAGCACAAGTAGTAAAACAAATAAACATAAAAGGTTTGATTCAAAATTAAATATTTTTTCATTCTACAAAGGATATAACAAAGTAATTTAAGAAATAAAGAATAGGAGAATATATTTATGCCTCAAACAAAAAAAATCATCTGGCATATACAAGAAATTCCTACAAGTCAACATTTTAAAAATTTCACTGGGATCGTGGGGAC`: “normalised bound fraction” 0.4 ratio.
`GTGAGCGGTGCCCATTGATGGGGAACGCTGAAGAAGTATTCCACATCCGTCCAAGTGGACTATTCACTTAAGAAAACATTAATGCCATTTGCTGGCACAGATGCCCTTGCATGGCTCATTGTTTACATACTGAAAAACATCTAGCTCCACTGAGCTTTTAAAATTAACTAGAGCCCTTGAACTGTCCAGGCAAAGAGAAAATCATCAGTAATATTTAAATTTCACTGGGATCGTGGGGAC`: “normalised bound fraction” 0.454 ratio.
For `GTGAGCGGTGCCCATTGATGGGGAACATCTTCCCCCTCTTCCTTGCCCCACCAGCTCACCTTCCCGGGTTATTTGCAGATAGGAAAATAAATAAAGCCGGCATTCGTTAACCCTCTTCTGGCGCAAACTGCTGTTTGCTCTGGTCCTTTGGCGACGCCAGGCTCCGGATGAATCATGGGAGAGCAAAGCACCGTGTCAGGGCCATGATCCGGGGTGGCCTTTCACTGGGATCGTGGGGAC`, “normalised bound fraction” read 0.403 ratio.
For `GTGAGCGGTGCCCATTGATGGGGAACCCACATGACTCATAAATAGATGGAAAGACACTCAACCACTTCAGTAGCCAAGCAAATTCAAACACACATCACAATGAGGTATTACTATACTCTGCAATCTCCAAGTATCGGCAAGGATGTCGAGCGACAGGGAGTCCCGTGCACTGCCAGGGGAGGTGTGAATCGGCACATCCAGGTGGGAAAGCAAAGTGGCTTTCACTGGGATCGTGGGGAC`, “normalised bound fraction” read -0.0187 ratio.
`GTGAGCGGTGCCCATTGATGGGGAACCTGGAGAAATACAGTACGAAACCCAGCAGGCTTCTGCAATCTACACATCCCTTTAAGTTAATTGGTGTTATATAGAAGCTGAAATGCTCCGCTAAATTACAAAGCTACAGATTTATGTAAAGCAAAACCAATTACACTTAATGCCTAAACTATTCCAGGTGCTCAATGATAATGTTGCTAGGCAGTAGAGAAGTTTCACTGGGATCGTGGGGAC` — result for “normalised bound fraction”: -0.0161 ratio.

Sample 2 — technique: protein-binding microarray; form: double-stranded DNA, one strand shown; medium: in vitro; concentration: 2200 nM top; notes: 60-bp whole probe; added: salmon DNA 0.4 mg/ml; reference: random background probes; reading: higher = stronger binding; constant ends, left off below: GCCTAGCAC … GTCTTGATTCGCTTGACGCTGCTG
Target: Interferon regulatory factor 7, full length, phosphomimetic (IRF7, Homo sapiens, UniProt Q92985, residues 1-503, S471D/S472D/S475D/S476D/S477D/S483D/S484D/S487D)
Residues (chain): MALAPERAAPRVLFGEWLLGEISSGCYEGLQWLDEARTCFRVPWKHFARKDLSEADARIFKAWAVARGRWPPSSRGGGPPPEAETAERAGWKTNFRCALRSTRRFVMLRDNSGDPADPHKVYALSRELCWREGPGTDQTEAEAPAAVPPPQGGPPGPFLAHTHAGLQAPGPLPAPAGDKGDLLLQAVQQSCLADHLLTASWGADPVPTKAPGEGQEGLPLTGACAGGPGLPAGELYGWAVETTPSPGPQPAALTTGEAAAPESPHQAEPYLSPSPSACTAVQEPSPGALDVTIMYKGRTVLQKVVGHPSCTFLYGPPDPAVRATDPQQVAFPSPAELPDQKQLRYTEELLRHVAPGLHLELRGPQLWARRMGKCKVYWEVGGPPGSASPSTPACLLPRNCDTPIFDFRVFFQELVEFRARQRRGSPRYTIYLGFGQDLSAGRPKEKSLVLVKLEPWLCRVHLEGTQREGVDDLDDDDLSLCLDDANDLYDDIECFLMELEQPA
`GACGGACTGTTTATCCTGACGTGCTAG` — result for “fitted relative affinity”: 0.562 z-score.
`CTAGGTTTCGGGTATCGGTTAGTGCTA` — result for “fitted relative affinity”: 6.19 z-score.
`GACGATTTCGGTTCCGAGACGTGCTAG` — result for “fitted relative affinity”: 6.14 z-score.
For `TTACATATCAGTTTCGATTAGTGCTAG`, “fitted relative affinity” read 6.71 z-score.
Under “fitted relative affinity”, `TTAGATAACGGGTTTCGATTAGTGCTA` is recorded as 2.17 z-score.
For `TTAGGTATACTTCTCCTTTAGTGCTAG`, “fitted relative affinity” read 0.93 z-score.
Under “fitted relative affinity”, `TTAGATTTCGGGTTTCGATGAGTGCTA` is recorded as 4.76 z-score.
`TTCGATATCAGTCTCGATTAGTGCTAG`: “fitted relative affinity” 1.07 z-score.
`CCCCTCTTCTGGATCTCAGAGTGCTAG`: “fitted relative affinity” 0.514 z-score.
`TTCGGTTCCCTTTTCCTTTAGTGCTAG` — result for “fitted relative affinity”: 4.65 z-score.
Under “fitted relative affinity”, `TTTCCTTTATGTACTCTCTACGTGCTA` is recorded as 4.38 z-score.
For `GACGCTATCGGGTATCGGGACGTGCTA`, “fitted relative affinity” read 0.276 z-score.
For `TTAGAACTGAGTCTCCATTAGTGCTAG`, “fitted relative affinity” read -0.0137 z-score.
For `TTAGGACAGGACTATCGGTTAGTGCTA`, “fitted relative affinity” read -0.254 z-score.
Under “fitted relative affinity”, `GACGATTTTAGTATCGAGACGTGCTAG` is recorded as 0.533 z-score.
`GACGATTTCGGCACTGGAGACGTGCTA` — result for “fitted relative affinity”: 0.524 z-score.
For `TCAAGTCTCTGTTCTTTACTGTGCTAG`, “fitted relative affinity” read 1.26 z-score.
Under “fitted relative affinity”, `CTAGGTCTCGGTCTCGGTTAGTGCTAG` is recorded as 0.776 z-score.
`GACGGTTTCTACACTGGGGACGTGCTA` — result for “fitted relative affinity”: 1.28 z-score.

Sample 3 — technique: RNA Bind-n-Seq; form: RNA; medium: in vitro; concentration: 365 nM; reference: no-protein control; reading: higher = stronger binding
Target: RNA binding protein fox-1 homolog 2, RRM domain, GST-SBP tag (RBFOX2, Homo sapiens, UniProt O43251-10, residues 100-194)
Notes: natural RNA segment, single round, ends assumed
Target sequence (chain): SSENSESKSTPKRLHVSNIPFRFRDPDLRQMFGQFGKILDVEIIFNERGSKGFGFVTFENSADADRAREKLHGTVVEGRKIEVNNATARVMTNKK
For `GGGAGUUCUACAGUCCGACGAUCAUUCACACAGGCAAGGGUUGACUGGCCAAGCUGGCACCAUGUGCUUGUGCAGCUCUGGAUCUCUGAGCCUCCCCUGACUAACCUUGAGUAGGAACAUGCUGAUGGGACACUGGAAUUCUCGGGUGCCAA`, “RBNS enrichment (R)” read 0.316.
`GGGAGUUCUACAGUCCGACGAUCCCUUGAAGCCACAAGCUAGUUUUCUUAGUUUUAAAAUCCUGUUGUAUGAAUGGCAUUUGUAUAUUAAAACACUUUUUUAAAGGACAGUUGAAAAGGGCAAGAGGAAACCAUGGAAUUCUCGGGUGCCAA`: “RBNS enrichment (R)” 0.404.
`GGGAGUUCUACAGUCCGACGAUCCGAAGCCCACGCCAGCCCGGGGAUGGAGCAUGUAUGUAUUAUUUAUCUGCUGGAGUUCUACGUUUUUAUGUAAGCAUGAAACACAGGCAGUGUGAGAGAAAGCCAGGACCUGGAAUUCUCGGGUGCCAA` — result for “RBNS enrichment (R)”: 7.21.
`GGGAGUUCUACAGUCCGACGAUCGGCACUGGGCCUGUUGCCUGCCAGUCAUGGACACCCAUGUGAAAAAUCCUGAUUUCCAGCUCAUGGAGCCAGCGUUUGAACCUUGAACAAAUAAAUUUCAUUUAUGAUUUUGGAAUUCUCGGGUGCCAA`: “RBNS enrichment (R)” 0.438.
`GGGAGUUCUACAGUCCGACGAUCCCGUUAGUCAUUACUGCUGAGUCCUGGGUCACCAGCAGACACACUGGGCAUGGACCCCUCAAAGCAGGCACACCCAAAACACAAGUCUGUGGCUAGAACCUGAUGUGGUGUGGAAUUCUCGGGUGCCAA` — result for “RBNS enrichment (R)”: 5.27.
Under “RBNS enrichment (R)”, `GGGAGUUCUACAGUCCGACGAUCGGUGGGCCUCUUGCUUGUUGUCUCCUGUCUCCUCAAAUGGCUGAAAACUUGGAGGGUCUCGGUUGUUUUCCAUGCCUGGCCCCUCACAGCAGCGAGGCCACUGAAGAGCAUGGAAUUCUCGGGUGCCAA` is recorded as 0.38.
For `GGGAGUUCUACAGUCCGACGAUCCUCAUUUGUCCAAAUUUCUGGGCUCAGCGCUUGGGAGGGCAGGAGCCCUGGCACUAAUGCUGUACAGGUUUUUUUCCUGUUAGGAGAGCUGAGGCCAGCUGCCCACUGAGUGGAAUUCUCGGGUGCCAA`, “RBNS enrichment (R)” read 0.368.
For `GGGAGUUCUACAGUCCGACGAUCUGAAUCAUGUUCUAGUUGCUUGACCCUGCCACAUGGGUCCAGUGUUCAUCUGAGCAUAACUGUACUAAAUCCUUUUUCCAUAUCAGUAUAAUAAAGGAGUGAUGUGCAAUUGGAAUUCUCGGGUGCCAA`, “RBNS enrichment (R)” read 0.38.

Sample 4 — technique: Spec-seq; form: double-stranded DNA, one strand shown; medium: in vitro; concentration: not given; notes: whole probe, mean of replicates; reference: not given; reading: lower = stronger binding; constant ends, left off below: GAGTCGTCTCGTCAGCACA … CCGTAGAGCACTCAGGTC
Target: POU, POU domain (Salpingoeca helianthica)
Target sequence (chain): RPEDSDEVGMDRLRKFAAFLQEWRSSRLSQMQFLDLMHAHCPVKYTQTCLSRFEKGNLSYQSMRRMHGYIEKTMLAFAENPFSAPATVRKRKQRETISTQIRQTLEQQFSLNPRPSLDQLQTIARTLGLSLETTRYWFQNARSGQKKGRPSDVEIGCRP
`TGCTCTC` — result for “relative binding energy”: 1.02 ln ratio.
For `TGCACAC`, “relative binding energy” read 1.48 ln ratio.
For `TTGTGAT`, “relative binding energy” read 1.14 ln ratio.
`GATTAAT` — result for “relative binding energy”: -0.0884 ln ratio.
`TGCCTCG` — result for “relative binding energy”: 0.417 ln ratio.
`TACAAAT`: “relative binding energy” 1.11 ln ratio.
`CTATAAT` — result for “relative binding energy”: 0.272 ln ratio.
For `TGCCTCC`, “relative binding energy” read 1.21 ln ratio.
For `TAAAAAT`, “relative binding energy” read 0.761 ln ratio.
For `TCCAAAT`, “relative binding energy” read 1.32 ln ratio.
Under “relative binding energy”, `TGTGAAT` is recorded as 1.23 ln ratio.
Under “relative binding energy”, `TGCTGCC` is recorded as 1.34 ln ratio.
Under “relative binding energy”, `TGCTATC` is recorded as 1.16 ln ratio.
`TGCTGGG` — result for “relative binding energy”: 1.36 ln ratio.
`TGCATCC`: “relative binding energy” 1.12 ln ratio.
`TGCGTTA`: “relative binding energy” 0.838 ln ratio.

Repeated from above (sample 4):
Under “relative binding energy”, `TGCTATC` is recorded as 1.16 ln ratio.
`TGCTGGG` — result for “relative binding energy”: 1.36 ln ratio.
`TGCATCC`: “relative binding energy” 1.12 ln ratio.
